# Experimental data of several laboratories.
# Protocols differ between the studies behind these lines. Values joined by “and” are separate records of one study, mostly repeats; a detail may differ. ± marks the error that the study gave.
# CHRM2: Muscarinic acetylcholine receptor M2 (CHRM2, Homo sapiens, UniProt P08172)
# Sequence of UniProt P08172 (whole entry, looked up): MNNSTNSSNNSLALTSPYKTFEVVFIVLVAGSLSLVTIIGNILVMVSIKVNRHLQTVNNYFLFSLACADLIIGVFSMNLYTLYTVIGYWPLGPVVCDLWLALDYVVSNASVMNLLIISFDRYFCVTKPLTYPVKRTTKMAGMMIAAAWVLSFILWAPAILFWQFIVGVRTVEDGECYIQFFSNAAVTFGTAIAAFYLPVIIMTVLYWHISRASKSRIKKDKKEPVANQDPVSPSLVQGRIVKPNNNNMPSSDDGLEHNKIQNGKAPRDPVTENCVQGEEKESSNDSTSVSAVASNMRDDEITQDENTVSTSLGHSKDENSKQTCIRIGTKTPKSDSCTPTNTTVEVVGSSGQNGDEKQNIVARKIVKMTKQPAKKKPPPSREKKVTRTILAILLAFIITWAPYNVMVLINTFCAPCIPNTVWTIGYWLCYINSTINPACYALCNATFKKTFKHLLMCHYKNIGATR
# HTR6: 5-hydroxytryptamine receptor 6 (HTR6, Homo sapiens, UniProt P50406)
# Sequence of UniProt P50406 (whole entry, looked up): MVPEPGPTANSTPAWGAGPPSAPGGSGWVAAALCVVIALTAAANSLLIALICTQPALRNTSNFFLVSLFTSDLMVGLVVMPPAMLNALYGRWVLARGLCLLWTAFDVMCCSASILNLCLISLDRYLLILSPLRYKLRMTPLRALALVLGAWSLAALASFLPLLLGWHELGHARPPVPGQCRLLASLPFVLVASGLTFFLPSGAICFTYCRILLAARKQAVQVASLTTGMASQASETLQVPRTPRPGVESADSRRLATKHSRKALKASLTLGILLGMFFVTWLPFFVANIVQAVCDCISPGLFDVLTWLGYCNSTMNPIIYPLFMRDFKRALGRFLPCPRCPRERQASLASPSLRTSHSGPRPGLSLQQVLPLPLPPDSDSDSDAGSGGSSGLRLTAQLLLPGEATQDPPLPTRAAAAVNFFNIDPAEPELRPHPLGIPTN
# Uncharacterized protein: Uncharacterized protein (Trypanosoma cruzi, UniProt Q4DRC3)
# CASP9: Caspase-9 (CASP9, Homo sapiens, UniProt P55211)
# Sequence of UniProt P55211 (whole entry, looked up): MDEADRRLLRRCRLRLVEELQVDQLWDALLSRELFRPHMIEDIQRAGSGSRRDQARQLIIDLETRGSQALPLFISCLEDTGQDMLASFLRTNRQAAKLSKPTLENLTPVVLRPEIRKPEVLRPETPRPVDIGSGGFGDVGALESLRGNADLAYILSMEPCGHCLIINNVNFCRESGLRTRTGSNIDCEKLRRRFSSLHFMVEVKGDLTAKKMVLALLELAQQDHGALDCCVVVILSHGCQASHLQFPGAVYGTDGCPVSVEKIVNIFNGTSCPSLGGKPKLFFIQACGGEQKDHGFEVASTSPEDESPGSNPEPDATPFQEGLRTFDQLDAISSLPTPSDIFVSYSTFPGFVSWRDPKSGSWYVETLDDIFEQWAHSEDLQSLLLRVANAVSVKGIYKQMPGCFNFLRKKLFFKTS
# KDM1A: Lysine-specific histone demethylase 1A (KDM1A, Homo sapiens, UniProt O60341)
# DRD3: D(3) dopamine receptor (DRD3, Homo sapiens, UniProt P35462)
# Sequence of UniProt P35462 (whole entry, looked up): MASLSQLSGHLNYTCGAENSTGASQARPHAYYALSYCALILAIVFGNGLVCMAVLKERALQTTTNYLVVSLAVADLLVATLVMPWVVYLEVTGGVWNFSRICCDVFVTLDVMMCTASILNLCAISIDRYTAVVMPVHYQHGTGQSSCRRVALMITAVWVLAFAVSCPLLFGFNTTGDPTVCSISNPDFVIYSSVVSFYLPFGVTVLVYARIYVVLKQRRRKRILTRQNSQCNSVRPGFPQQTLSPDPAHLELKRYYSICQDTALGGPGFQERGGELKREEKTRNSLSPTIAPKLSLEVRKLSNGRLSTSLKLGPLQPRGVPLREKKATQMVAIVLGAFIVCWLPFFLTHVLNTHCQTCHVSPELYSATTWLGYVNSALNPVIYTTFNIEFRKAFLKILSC
# cathepsin L: cathepsin L (Capra hircus, UniProt A0A452FFI6)
# Sequence of UniProt P05177 (whole entry, looked up): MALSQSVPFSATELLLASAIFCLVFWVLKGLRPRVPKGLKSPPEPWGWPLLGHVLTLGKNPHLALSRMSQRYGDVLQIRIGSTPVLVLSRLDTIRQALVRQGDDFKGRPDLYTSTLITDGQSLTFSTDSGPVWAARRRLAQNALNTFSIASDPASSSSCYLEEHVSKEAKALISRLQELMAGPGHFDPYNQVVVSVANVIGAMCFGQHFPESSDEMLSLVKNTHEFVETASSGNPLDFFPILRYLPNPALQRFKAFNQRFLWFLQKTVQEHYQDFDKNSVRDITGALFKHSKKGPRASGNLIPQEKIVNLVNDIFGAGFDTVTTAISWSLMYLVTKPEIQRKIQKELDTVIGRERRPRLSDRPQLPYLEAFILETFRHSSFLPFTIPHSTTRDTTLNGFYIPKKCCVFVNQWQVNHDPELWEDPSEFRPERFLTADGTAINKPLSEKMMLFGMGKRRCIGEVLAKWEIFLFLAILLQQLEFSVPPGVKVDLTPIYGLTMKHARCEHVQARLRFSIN
# Sequence of UniProt P34913 (whole entry, looked up): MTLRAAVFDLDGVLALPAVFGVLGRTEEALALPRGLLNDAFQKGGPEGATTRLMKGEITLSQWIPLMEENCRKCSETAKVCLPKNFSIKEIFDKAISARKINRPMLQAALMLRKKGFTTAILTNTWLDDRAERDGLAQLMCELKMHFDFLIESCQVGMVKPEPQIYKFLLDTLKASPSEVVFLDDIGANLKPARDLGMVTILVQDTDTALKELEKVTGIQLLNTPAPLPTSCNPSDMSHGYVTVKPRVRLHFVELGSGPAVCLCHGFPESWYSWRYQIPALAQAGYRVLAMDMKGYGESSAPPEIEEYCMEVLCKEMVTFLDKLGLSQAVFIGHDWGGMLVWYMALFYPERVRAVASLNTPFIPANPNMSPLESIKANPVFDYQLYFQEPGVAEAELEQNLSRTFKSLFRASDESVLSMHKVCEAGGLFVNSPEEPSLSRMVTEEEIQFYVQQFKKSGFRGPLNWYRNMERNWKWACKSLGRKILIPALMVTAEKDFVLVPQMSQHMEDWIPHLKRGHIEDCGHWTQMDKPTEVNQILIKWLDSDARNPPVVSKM
# Sequence of UniProt Q16572 (whole entry, looked up): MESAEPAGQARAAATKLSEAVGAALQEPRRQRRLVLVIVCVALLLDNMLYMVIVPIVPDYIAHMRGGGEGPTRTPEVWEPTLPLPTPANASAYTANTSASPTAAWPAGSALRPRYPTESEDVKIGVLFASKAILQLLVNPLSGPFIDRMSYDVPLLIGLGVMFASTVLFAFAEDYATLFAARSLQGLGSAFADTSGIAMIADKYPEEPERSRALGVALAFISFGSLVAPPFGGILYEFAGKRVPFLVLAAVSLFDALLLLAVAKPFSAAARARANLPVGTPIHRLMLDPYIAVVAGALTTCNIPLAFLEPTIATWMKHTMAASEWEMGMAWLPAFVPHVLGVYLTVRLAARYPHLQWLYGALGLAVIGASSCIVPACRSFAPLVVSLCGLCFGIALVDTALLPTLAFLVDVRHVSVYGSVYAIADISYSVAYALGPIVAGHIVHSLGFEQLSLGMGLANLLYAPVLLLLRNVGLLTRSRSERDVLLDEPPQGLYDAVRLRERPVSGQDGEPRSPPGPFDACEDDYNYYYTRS
# Sequence of UniProt P51692 (whole entry, looked up): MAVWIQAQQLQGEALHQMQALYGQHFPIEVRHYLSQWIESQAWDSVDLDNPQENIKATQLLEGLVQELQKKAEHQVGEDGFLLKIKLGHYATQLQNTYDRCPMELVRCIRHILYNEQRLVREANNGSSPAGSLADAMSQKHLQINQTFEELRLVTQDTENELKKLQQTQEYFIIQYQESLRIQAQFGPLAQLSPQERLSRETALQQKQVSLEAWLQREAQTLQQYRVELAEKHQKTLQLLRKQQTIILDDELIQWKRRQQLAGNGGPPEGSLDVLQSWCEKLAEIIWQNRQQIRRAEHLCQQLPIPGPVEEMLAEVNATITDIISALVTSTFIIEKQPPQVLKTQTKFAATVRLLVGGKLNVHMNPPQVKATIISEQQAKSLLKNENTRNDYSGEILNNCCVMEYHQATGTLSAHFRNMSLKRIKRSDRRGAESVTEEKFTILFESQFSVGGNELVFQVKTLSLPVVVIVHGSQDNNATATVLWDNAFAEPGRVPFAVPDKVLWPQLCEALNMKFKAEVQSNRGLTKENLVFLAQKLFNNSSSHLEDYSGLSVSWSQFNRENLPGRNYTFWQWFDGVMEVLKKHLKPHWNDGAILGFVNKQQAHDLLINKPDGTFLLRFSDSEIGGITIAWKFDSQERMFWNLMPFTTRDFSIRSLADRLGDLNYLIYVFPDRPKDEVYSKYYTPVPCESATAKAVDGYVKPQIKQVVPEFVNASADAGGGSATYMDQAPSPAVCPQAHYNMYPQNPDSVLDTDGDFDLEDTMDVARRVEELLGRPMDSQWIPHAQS
# Sequence of UniProt P33032 (whole entry, looked up): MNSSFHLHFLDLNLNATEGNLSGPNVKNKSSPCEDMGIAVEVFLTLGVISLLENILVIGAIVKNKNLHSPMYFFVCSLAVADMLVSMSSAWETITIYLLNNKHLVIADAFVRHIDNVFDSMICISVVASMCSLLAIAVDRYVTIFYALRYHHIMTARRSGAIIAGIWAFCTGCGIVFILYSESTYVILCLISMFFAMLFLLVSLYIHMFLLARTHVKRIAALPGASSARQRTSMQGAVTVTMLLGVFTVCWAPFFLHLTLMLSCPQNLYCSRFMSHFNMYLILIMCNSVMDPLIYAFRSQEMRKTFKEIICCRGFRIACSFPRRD
# Sequence of UniProt P00915 (whole entry, looked up): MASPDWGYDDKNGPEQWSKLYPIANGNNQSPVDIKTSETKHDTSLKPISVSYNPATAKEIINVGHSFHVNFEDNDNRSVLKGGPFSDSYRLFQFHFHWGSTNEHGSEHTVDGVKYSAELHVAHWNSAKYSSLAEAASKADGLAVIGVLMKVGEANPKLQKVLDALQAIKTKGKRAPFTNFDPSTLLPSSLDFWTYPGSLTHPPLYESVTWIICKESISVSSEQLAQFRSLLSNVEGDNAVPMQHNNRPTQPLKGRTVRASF
SMILES,tested on,test,test system,setting,endpoint,value
Nc1ncnc2c(CN3C[C@H](CSc4cnccn4)[C@@H](O)C3)c[nH]c12,"MTA/SAH nucleosidase (Campylobacter jejuni subsp. jejuni, UniProt Z9IB28FKP7)",inhibitor,,"pH 7.4, 25 °C, together with: MTA 1 mM",Ki,0.0057 ± 0.0007 µM
CN1CCC=C(c2nsnc2OCCCCCNC(=O)CCCCCCC(=O)NCCCCCOc2nsnc2C2=CCCN(C)C2)C1,CHRM2,"ligand displacement, radioligand",,,Ki,0.00347 µM
Clc1cc(OCCCN2CCN(c3cccc4sccc34)CC2)ccc1CN1CCCCC1,HTR6,"ligand displacement, radioligand",,,Ki,0.396 µM
CCCCN1[C@H](CCC)[C@H](O)[C@@H](O)[C@H](O)[C@H]1CO,beta-glucosidase (almond),competitive inhibitor,,together with: p-nitrophenyl glucopyranoside,Ki,> 2000 µM
Nc1nc2c(CNCCCP(=O)(O)O)c[nH]c2c(=O)[nH]1,Uncharacterized protein,"IMP formation, uncompetitive inhibitor",,"pH 8.3, 37 °C, together with: hypoxanthine 120 µM, PRPP 1 mM",Ki,8 ± 1 µM
CCCCCCCCNC(=S)N1[C@H](CCCCCCCC)[C@H](O)[C@@H](O)[C@H](O)[C@H]1CO,beta-glucosidase (almond),competitive inhibitor,,together with: p-nitrophenyl glucopyranoside,Ki,> 2000 µM
NCc1cc(C(=O)NCCN2CCN(CCCCC3CCN(CCCN4C(=O)CCc5ccccc54)CC3)CC2)cc(C(=O)NCCN2CCN(CCCCC3CCN(CC(=O)N4c5ccccc5NC(=O)c5ccccc54)CC3)CC2)c1,CHRM2,"ligand displacement, radioligand",,,Ki,0.000234 µM
CC[C@H](C)[C@H](NC(C)=O)C(=O)N[C@H](C(=O)N[C@H](C(=O)N[C@@H](CN)C(=O)N[C@H](C=O)CC(=O)O)C(C)C)[C@@H](C)O,CASP9,"enzyme activity, inhibitor, fluorescence",,pH 7,Ki,20.9 µM
"O=C(c1ccc(=O)n(CCF)c1)C1CCN(C2Cc3ccccc3CC2O)CC1 (single isomer, unassigned; (-))","Vesicular acetylcholine transporter (SLC18A3, Homo sapiens, UniProt Q16572)","ligand displacement, radioligand",,,Ki,0.00037 µM
COc1ccccc1/C=N/NC(=O)CSc1nc2ccccc2c(=O)n1CCc1ccc(S(N)(=O)=O)cc1,"Carbonic anhydrase 1 (CA1, Homo sapiens, UniProt P00915)","enzyme activity, inhibitor, stopped-flow",,,Ki,1.66 µM
COc1ccc(C2CC(c3ccc(C)cc3)=Nc3ccccc3S2)cc1OC (stereo not drawn),,,"Wistar rat, STZ-induced diabetes, serum","oral, 20 mg/kg once daily, 28 days",AST (SGOT),20.4 ± 2.29 IU/L
COc1cc2cc(C(=O)NCCc3ccc(O)cc3)c(C(=O)NCCc3ccc(O)cc3)cc2cc1O,"Bifunctional epoxide hydrolase 2 (EPHX2, Homo sapiens, UniProt P34913)","enzyme activity, inhibitor",,,Ki,9 µM
CN1CCC=C(c2nsnc2OCCCCCNC(=O)c2ccc(C(=O)NCCCCCOc3nsnc3C3=CCCN(C)C3)cc2)C1,CHRM2,"ligand displacement, radioligand",,,Ki,0.00417 µM
CC(C)c1noc(-c2ccc(-n3cnc(C(=O)NCc4cccs4)c3)nc2)n1,"Alpha-synuclein, fibril (SNCA, Homo sapiens, UniProt P37840)","ligand displacement, radioligand",,,Ki,0.0121 µM
COc1ccc(CCCN[C@H]2CCC[C@@H]2CN[C@H]2CCC[C@@H]2CNCCCCN[C@@H]2CCC[C@H]2CN)cc1,KDM1A,"enzyme activity, inhibitor",,,Ki,2.5 µM
COc1ccc(C2c3[nH]c4ccccc4c3CCN2Cc2cccc(F)c2)cc1 (stereo not drawn),"5-hydroxytryptamine receptor 1A (HTR1A, Homo sapiens, UniProt P08908)","ligand displacement, radioligand",,,Ki,8.19 µM
COc1ccc(C2CC(c3ccc(C)cc3)=Nc3ccccc3S2)cc1 (stereo not drawn),,,"Wistar rat, STZ-induced diabetes, serum","oral, 10 mg/kg once daily, 28 days",AST (SGOT),24 ± 2.11 IU/L
CCCC[C@H](NC(=O)CNC(=O)CNC(=O)CN1CCN(CC(=O)O)CCN(CC(=O)O)CC1)C(=O)N[C@H]1CC(=O)NCCCC[C@@H](C(N)=O)NC(=O)[C@H](Cc2c[nH]c3ccccc23)NC(=O)[C@H](CCCNC(=N)N)NC(=O)[C@@H](Cc2ccccc2)NC(=O)[C@H](Cc2c[nH]cn2)NC1=O [technetium-99m labelled],,,"C57 mice, intestines","intravenous, 0.037 MBq, 4 h",tissue uptake,2.6 ± 0.28 %ID
CCCCNC(=S)N1[C@H](CCC)[C@H](O)[C@@H](O)[C@H](O)[C@H]1CO,beta-glucosidase (almond),competitive inhibitor,,together with: p-nitrophenyl glucopyranoside,Ki,> 2000 µM
CN(CCNc1ncc(C#N)cc1Cl)Cc1ccc(F)cc1,DRD3,"ligand displacement, radioligand",,cell membranes,Ki,6.04 µM
CC1=CC[C@@H]2[C@H](C1)C2(C)C,"chemosensory protein 5 (Mythimna separata, UniProt A0A5H2NAD7)","binding, 1-NPN displacement",,pH 5.0,Ki,4.67 µM
CN(C)CCSC(=S)N1CCN(C(=O)/C=C/c2coc3ccccc3c2=O)CC1,tomato spotted wilt virus,"viral infection, half-leaf method",Nicotiana glutinosa,500 µg/mL,inactivation effect,71.6 ± 7.9%
NC(=O)N/N=C(\C=C\c1cccc(Cl)c1)c1ccccc1,cathepsin L,"enzyme activity, competitive inhibitor",goat liver enzyme,"pH 6.0, together with: Z-Phe-Arg-4-methoxy-β-naphthylamide",Ki,5e-05 ± 5e-07 µM
O=C1Nc2ccccc2N(C(=O)CN2CCC(CCCCN3CCN(CCOC(=O)C4c5ccccc5Oc5ccccc54)CC3)CC2)c2ccccc21,CHRM2,"ligand displacement, radioligand",,,Ki,0.00151 µM
CCCC[C@H](NC(=O)CNC(=O)CNC(=O)CN1CCN(CC(=O)O)CCN(CC(=O)O)CCN(CC(=O)O)CC1)C(=O)N[C@H]1CC(=O)NCCCC[C@@H](C(N)=O)NC(=O)[C@H](Cc2c[nH]c3ccccc23)NC(=O)[C@H](CCCNC(=N)N)NC(=O)[C@@H](Cc2ccccc2)NC(=O)[C@H](Cc2c[nH]cn2)NC1=O [lutetium-177 labelled],,,"C57 mouse, female, pancreas","intravenous, 0.037 MBq, 24 h",tissue uptake,0.2 ± 0.11 %ID/g
NCCCCNCCCNCCCNCCCN,KDM1A,"enzyme activity, inhibitor, absorbance",,,Ki,13 µM
O=C(COc1ccc2ccccc2c1)NCc1ccc(OP(=O)(O)O)c(OP(=O)(O)O)c1,"Signal transducer and activator of transcription 5B, SH2 (STAT5B, Homo sapiens, UniProt P51692)","ligand displacement, FP",,,Ki,0.28 µM
O=c1[nH]cnc2c(CN[C@H](CO)CCP(=O)(O)O)c[nH]c12,Uncharacterized protein,"IMP formation, uncompetitive inhibitor",,"pH 8.3, 37 °C, together with: hypoxanthine 120 µM, PRPP 1 mM",Ki,1.6 µM and 0.6 to 1.6 µM
CC1CCC2(OC1)OC1CC3C4CC=C5CC(OC6OC(CO)C(OC7OC(CO)C(O)C7O)C(O)C6OC6OC(C)C(O)C(O)C6O)CCC5(C)C4CCC3(C)C1(O)C2C (stereo not drawn),"Cytochrome P450 1A2 (CYP1A2, Homo sapiens, UniProt P05177)","enzyme activity, inhibitor","human, liver microsomes",pH 7.4,Ki,3.18 µM
CCn1c2ccccc2c2cc(CNCCCn3ccnn3)ccc21,DRD3,cell-free assay,,,Ki,0.0967 µM
NC(=O)N/N=C(\C=C\c1ccc([N+](=O)[O-])cc1)c1ccccc1,cathepsin L,"enzyme activity, competitive inhibitor",goat liver enzyme,"pH 6.0, together with: Z-Phe-Arg-4-methoxy-β-naphthylamide",Ki,0.0168 ± 6e-05 µM
CN1C(=O)[C@@H](Cc2ccc(O)cc2)NC(=O)CNC(=O)[C@H](Cc2ccc3ccccc3c2)NC(=O)[C@H](CCCNC(=N)N)NC(=O)[C@H]1CCCNC(=O)c1ccc(CNC(=O)CN2CCN(CC(=O)O)CCN(CC(=O)O)CCN(CC(=O)O)CC2)cc1 [gallium-68 labelled],,extrapolated to adult male,"C57BL/6 mice, pancreas",,absorbed dose coefficient,0.0117 mGy/MBq
Fc1cc(CN2CCOCC2)ccc1OCCCN1CCN(c2cccc3sccc23)CC1,HTR6,"ligand displacement, radioligand",,,Ki,0.304 µM
N=C(N)NCCC[C@H](NC(=O)[C@@H](Cc1ccccc1)NC(=O)[C@H](Cc1c[nH]cn1)NC(=O)C=Cc1ccc(O)cc1)C(=O)N[C@@H](Cc1c[nH]c2ccccc12)C(N)=O,"Melanocortin receptor 5 (MC5R, Homo sapiens, UniProt P33032)","binding, TR-FRET competition",HEK293 transfected,"1 h, 37 °C, together with: 10 nM Eu-NDP-α-MSH",Ki,> 10 µM
CCCCCCOc1ccc(C(=O)OCC[N+]2(C)CC=CCC2)cc1 (stereo not drawn),CHRM2,"ligand displacement, radioligand",,cell membranes,Ki,0.151 µM
CC(C)C[C@@H]1NC(=O)[C@H](C)NC(=O)[C@H](CC2CCN(C(=N)N)CC2)NC(=O)[C@H](CO)NC(=O)[C@H](CCCNC(=N)N)NC(=O)[C@H](CCCCN)NC(=O)[C@@H]2CCCN2C(=O)[C@@H](N)CSSC[C@@H](C(=O)O)NC(=O)[C@H](Cc2ccccc2)NC1=O,"Urokinase-type plasminogen activator (Mus musculus, UniProt P06869)",,,"pH 7.4, 37 °C, together with: S-2444 substrate",Ki,> 1000 µM
N=C(N)NCCC[C@@H]1NC(=O)[C@H](Cc2c[nH]c3ccccc23)NC(=O)[C@@H](CC2CCCCC2)NC(=O)[C@@H]2CCCN2C(=O)[C@@H](NC(=O)CCc2ccccc2)CCCNC1=O,,,"C57BL/6J mice, spinal cord","subcutaneous, 1 mg/kg",Cmax,225 ng/g
CCN(CC)CCCSC(=S)N1CCN(C(=O)/C=C/c2coc3ccc(F)cc3c2=O)CC1,tomato spotted wilt virus,"viral infection, half-leaf method",Nicotiana glutinosa,500 µg/mL,protective effect,61.5 ± 4.2%
CC(=O)N[C@@H](C)C(=O)N[C@@H](CC(=O)O)C(=O)N[C@@H](CCCNC(=N)N)C(=O)N[C@H](C(=O)N[C@H](C=O)CC(=O)O)[C@@H](C)O,CASP9,"enzyme activity, inhibitor, fluorescence",,pH 7,Ki,15.5 µM

# Repeated from above:
SMILES,tested on,test,test system,setting,endpoint,value
COc1ccc(C2CC(c3ccc(C)cc3)=Nc3ccccc3S2)cc1OC (stereo not drawn),,,"Wistar rat, STZ-induced diabetes, serum","oral, 20 mg/kg once daily, 28 days",AST (SGOT),20.4 ± 2.29 IU/L
COc1cc2cc(C(=O)NCCc3ccc(O)cc3)c(C(=O)NCCc3ccc(O)cc3)cc2cc1O,"Bifunctional epoxide hydrolase 2 (EPHX2, Homo sapiens, UniProt P34913)","enzyme activity, inhibitor",,,Ki,9 µM
CN1CCC=C(c2nsnc2OCCCCCNC(=O)c2ccc(C(=O)NCCCCCOc3nsnc3C3=CCCN(C)C3)cc2)C1,CHRM2,"ligand displacement, radioligand",,,Ki,0.00417 µM
CC(C)c1noc(-c2ccc(-n3cnc(C(=O)NCc4cccs4)c3)nc2)n1,"Alpha-synuclein, fibril (SNCA, Homo sapiens, UniProt P37840)","ligand displacement, radioligand",,,Ki,0.0121 µM
COc1ccc(CCCN[C@H]2CCC[C@@H]2CN[C@H]2CCC[C@@H]2CNCCCCN[C@@H]2CCC[C@H]2CN)cc1,KDM1A,"enzyme activity, inhibitor",,,Ki,2.5 µM
